Assay results gathered from unrelated publications.
Protocols differ between the studies behind these lines. ± marks the error that the study gave.
Sequence of UniProt P08069 (whole entry, looked up): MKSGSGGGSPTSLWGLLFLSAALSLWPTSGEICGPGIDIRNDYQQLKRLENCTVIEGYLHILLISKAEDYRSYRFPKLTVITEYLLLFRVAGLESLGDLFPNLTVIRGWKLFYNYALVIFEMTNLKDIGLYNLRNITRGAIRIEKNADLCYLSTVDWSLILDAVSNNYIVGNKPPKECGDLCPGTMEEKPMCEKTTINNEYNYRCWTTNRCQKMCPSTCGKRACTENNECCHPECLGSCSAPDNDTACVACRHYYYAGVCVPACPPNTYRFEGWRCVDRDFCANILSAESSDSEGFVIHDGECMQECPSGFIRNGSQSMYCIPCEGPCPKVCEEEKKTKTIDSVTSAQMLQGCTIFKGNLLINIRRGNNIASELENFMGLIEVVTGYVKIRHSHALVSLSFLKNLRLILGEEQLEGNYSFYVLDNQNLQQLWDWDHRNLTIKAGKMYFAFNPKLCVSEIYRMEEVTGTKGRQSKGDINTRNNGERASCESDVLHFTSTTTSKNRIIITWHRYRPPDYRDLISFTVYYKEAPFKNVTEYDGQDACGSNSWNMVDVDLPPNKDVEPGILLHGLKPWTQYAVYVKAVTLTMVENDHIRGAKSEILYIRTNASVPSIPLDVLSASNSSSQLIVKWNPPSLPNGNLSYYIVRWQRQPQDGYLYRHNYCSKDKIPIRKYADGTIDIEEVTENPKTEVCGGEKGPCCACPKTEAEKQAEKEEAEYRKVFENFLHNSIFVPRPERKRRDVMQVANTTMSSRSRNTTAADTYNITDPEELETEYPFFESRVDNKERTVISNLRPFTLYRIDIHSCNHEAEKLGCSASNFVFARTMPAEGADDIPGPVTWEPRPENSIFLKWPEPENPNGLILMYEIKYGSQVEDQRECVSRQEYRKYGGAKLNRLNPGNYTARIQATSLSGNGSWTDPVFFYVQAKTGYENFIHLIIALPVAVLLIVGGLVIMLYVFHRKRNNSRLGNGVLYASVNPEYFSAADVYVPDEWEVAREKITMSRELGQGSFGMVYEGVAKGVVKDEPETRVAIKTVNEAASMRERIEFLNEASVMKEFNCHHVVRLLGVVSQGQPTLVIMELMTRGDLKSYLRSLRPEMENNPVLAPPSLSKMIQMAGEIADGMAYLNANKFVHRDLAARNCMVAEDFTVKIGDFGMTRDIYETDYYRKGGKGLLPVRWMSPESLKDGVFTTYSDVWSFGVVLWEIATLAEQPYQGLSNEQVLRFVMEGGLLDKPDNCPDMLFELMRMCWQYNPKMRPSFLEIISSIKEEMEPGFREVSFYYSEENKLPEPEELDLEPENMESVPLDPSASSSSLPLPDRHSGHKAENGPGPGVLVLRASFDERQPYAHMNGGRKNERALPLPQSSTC

`C[C@H](C(=O)N[C@H]1COc2ccccc2[C@@H]1S(C)(=O)=O)c1ccc(F)cc1` has an inhibition of -3% (phorbol ester site, mouse; binding; 10 µM, Eurofins selectivity panel).
For `Oc1cc(Cl)ccc1Oc1ccc(Cl)cc1Cl`, the cross-reactivity was 100% (nanobody T1 (Bactrian camel); ELISA, IC50-based; concentration not given, coating antigen T1/H1-BSA).
With `O=C(Cc1cccc2ccccc12)N[C@H]1CCOC1=O` the inhibition was 69% (ExpR1 (Pectobacterium carotovorum); cellulase activity, antagonist; Pectobacterium carotovorum, single-ExpR1 strain; 5 µM, 4 h, together with: OHHL 5 µM).
`c1ccc(C(NCCNC(c2ccccc2)c2ccccc2)c2ccccc2)cc1` gave an inhibition of 56% (L-type calcium channel, rat, Benzothiazepine site; binding; 10 µM, Eurofins selectivity panel).
`O=C(Cc1cccc([N+](=O)[O-])c1)N[C@H]1CCOC1=O` gave an activation of 115% (ExpR1 (Pectobacterium carotovorum); cellulase activity, agonist; Pectobacterium carotovorum, single-ExpR1 strain; 200 µM, 4 h; baseline: OHHL).
For `Nc1ncnc2c1ncn2[C@@H]1O[C@H](COP(=O)(O)CP(=O)(O)OP(=O)(O)O)[C@@H](O)[C@H]1O`, the IC50 was 29 nM (purinergic P2X receptor; radioligand binding).
Under activity class, `[Hg+2]` is recorded as “inactive” (PP2C; enzyme activity; concentration not given).
`NCCc1c[nH]c2ccc(O)cc12` has a kcat of 0.0012 s⁻¹ (NMT from Rhinella marina; 10 min, 30 °C).
`CCCCCC(=O)CC(=O)N[C@H]1CCOC1=O` gave an inhibition of 65% (ExpR1 (Pectobacterium carotovorum); cellulase activity, antagonist; Pectobacterium carotovorum, single-ExpR1 strain; 5 µM, 4 h, together with: OHHL 5 µM).
`CCCCCCCCCCCCCC(=O)O[C@@H]1[C@@H](C)[C@@]2(O)[C@@H](C=C(CO)C[C@]3(O)C(=O)C(C)=C[C@@H]23)[C@@H]2C(C)(C)[C@]12OC(C)=O` gave an IC50 of 1.08 nM (phorbol ester receptor mouse; binding, radioligand binding).
The inhibition of `CC(C)CC(=O)OC[C@H]1O[C@@](C#N)(c2ccc3c(N)ncnn23)[C@H](O)[C@@H]1O` is reported as 6% (GABA transporter rat; radioligand binding; 20 µM).
With `N#Cc1c(N)nc(SCC(N)=O)c(C#N)c1-c1ccc(OCC2CC2)cc1` the EC50 was 463 ± 126 nM (ERK1/2 rat; increase of activity; H9c2; no PMA).
For `[Ba+2]`, activity class read “inactive” (PP2C; enzyme activity; concentration not given).
For `CCCCCC(=O)N[C@H]1CCOC1=O`, the inhibition was 67% (ExpR1 (Pectobacterium carotovorum); cellulase activity, antagonist; Pectobacterium carotovorum, single-ExpR1 strain; 5 µM, 4 h, together with: OHHL 5 µM).
The relative abundance of `C[C@H]1CN(c2n[nH]c3nc(N[C@H]4CC[C@H](NS(=O)(=O)CCC(F)(F)F)CC4)ncc23)CCO1` is reported as 0.97 (IGF1R (Homo sapiens, UniProt P08069); inhibitor, Kinobeads competition profiling; 0.032 µM; baseline: vehicle).
`O=C(Cc1ccc(I)cc1)N[C@H]1CCOC1=O` gave an activation of 6% (ExpR1 (Pectobacterium carotovorum); cellulase activity, agonist; Pectobacterium carotovorum, single-ExpR1 strain; 200 µM, 4 h; baseline: OHHL).
With `COc1cc(Nc2ncc(F)c(Nc3ccc4c(n3)NC(=O)C(C)(C)O4)n2)cc(OC)c1OC` the IC50 was greater than 10000 nM (glycine transporter).
The inhibition of `CC[C@@](C)(Nc1ccnc(-c2c[nH]c3ncccc23)n1)C(=O)NCC(F)(F)F` is reported as -4.44% (NLRP3 inflammasome; 10 µM).
For `O=C(Cc1cccc(Br)c1)N[C@H]1CCOC1=O`, the activation was 63% (ExpR1 (Pectobacterium carotovorum); cellulase activity, agonist; Pectobacterium carotovorum, single-ExpR1 strain; 200 µM, 4 h; baseline: OHHL).
With `CCC(CC)Nc1c([N+](=O)[O-])cc(C)c(C)c1[N+](=O)[O-]` the IC50 was greater than 1 µg/mL (anti-BL mouse monoclonal antibody; binding, indirect competitive ELISA; pH 7.4, 1% methanol).
For `O=C(CCc1ccc(Br)cc1)N[C@H]1CCOC1=O`, the inhibition was 78% (ExpR1 (Pectobacterium carotovorum); cellulase activity, antagonist; Pectobacterium carotovorum, single-ExpR1 strain; 5 µM, 4 h, together with: OHHL 5 µM).
The EC50 of `O[C@@H]1[C@@H]2OP(O)(=S)OC[C@H]2O[C@H]1n1cnc2cc(Cl)c(Cl)cc21` (single isomer, unassigned) is reported as greater than 10000 nM (anti-cAMP antibody; binding, cAMP EIA, acetylated).
